Experimental data collected from several papers.
Lines come from different studies, so protocols differ.
Organism: Staphylococcus aureus

With CC[C@H](C)[C@H](NC(=O)[C@@H](CCC(=O)O)NC(=O)[C@H](CC(C)C)NC(=O)c1cccc(C(=O)O)n1)C(=O)N[C@H]1CCCCNC(=O)[C@H](CC(N)=O)NC(=O)[C@@H](CC(=O)O)NC(=O)[C@H](Cc2c[nH]cn2)NC(=O)[C@@H](Cc2ccccc2)NC(=O)[C@H]([C@@H](C)CC)NC(=O)[C@@H](CCCN)NC1=O the MIC was > 64 µg/mL (USA300 methicillin-resistant; 18 h, 37 °C, 0.3 mM ZnSO4 LB).
For CC[C@H](C)[C@H](NC(=O)[C@H](CCCNC(=N)N)NC(=O)[C@@H]1CCCN1C(=O)[C@H](CCCNC(=N)N)NC(=O)[C@H](Cc1ccccc1)NC(=O)[C@H](Cc1c[nH]cn1)NC(=O)[C@H](CCCNC(=N)N)NC(=O)[C@H](CC(C)C)NC(=O)[C@H](CCCCN)NC(=O)CNC(=O)[C@H](CC(C)C)NC(=O)[C@H](Cc1ccccc1)NC(=O)[C@H](CCCNC(=N)N)NC(=O)CNC(=O)[C@H](Cc1ccccc1)NC(=O)[C@H](CCCNC(=N)N)NC(=O)CNC(=O)[C@H](CCCNC(=N)N)NC(=O)[C@H](CCC(N)=O)NC(=O)[C@@H](NC(=O)[C@@H](N)CC(C)C)[C@@H](C)CC)C(=O)N[C@@H](CCCCN)C(=O)N[C@@H](Cc1ccccc1)C(=O)N[C@@H](CCCCN)C(=O)NCC(=O)N[C@@H](CCCCN)C(=O)N[C@@H](C)C(=O)NCC(=O)N[C@@H](Cc1c[nH]c2ccccc12)C(=O)N[C@H](C(=O)N[C@H](C(=O)NCC(=O)O)C(C)C)[C@@H](C)O, the MIC was 0.94 log10 µg/mL (broth microdilution; ATCC 25923).
CC(C)C[C@@H]1NC(=O)[C@@H](CC(C)C)NC(=O)[C@H](CCN)NC(=O)[C@@H](NC(=O)[C@H](CCN)NC(=O)[C@@H](NC(=O)CCOCCOCCOCCN=[N+]=[N-])[C@@H](C)O)CCNC(=O)[C@H]([C@@H](C)O)NC(=O)[C@H](CCN)NC(=O)[C@H](CCN)NC1=O has an MIC of > 16 µg/mL (broth microdilution; MRSA USA300, cation-adjusted Mueller-Hinton broth; 20 to 24 h, 37 °C, 0.002% polysorbate 80).
For CC[C@H](C)[C@H](NC(=O)[C@H](Cc1c[nH]c2ccccc12)NC(=O)[C@H](Cc1ccc(O)cc1)NC(=O)[C@H](CCCCN)NC(=O)[C@H](CC(C)C)NC(=O)[C@H](CO)NC(=O)[C@@H](N)Cc1ccccc1)C(=O)N[C@@H](CCCNC(=N)N)C(=O)N[C@@H](Cc1ccc(O)cc1)C(=O)N[C@@H](CCCCN)C(=O)N[C@@H](CCCNC(=N)N)C(=O)N[C@@H](CCC(N)=O)C(=O)NCC(=O)N[C@@H](C)C(=O)N[C@@H](C)C(=O)N[C@@H](CCCNC(=N)N)C(=O)N[C@@H](Cc1ccccc1)C(N)=O, the MIC was 100 µM (broth dilution; ATCC 25923, Mueller-Hinton broth; 24 h, 37 °C).
For CCCCCCCCCCCCCC(=O)N[C@H]1C(=O)N[C@@H](CN)C(=O)N[C@@H](CO)C(=O)N[C@@H](Cc2ccc(O)cc2)C(=O)O[C@H]1C, the MIC was 2 µg/mL (SH1000; with: phosphatidylcholine, molar ratio 1).
CC[C@H](C)[C@H](NC(=O)[C@H](C)NC(=O)[C@@H](NC(=O)[C@H](CC(=O)O)NC(=O)[C@H](CCCCN)NC(=O)[C@H](CO)NC(=O)[C@@H](NC(=O)[C@H](CC(N)=O)NC(=O)[C@H](C)NC(=O)[C@@H](NC(=O)[C@H](CCC(=O)O)NC(=O)[C@H](CCCCN)NC(=O)[C@@H](NC(=O)[C@@H](NC(=O)[C@H](Cc1c[nH]cn1)NC(=O)[C@H](CCCCN)NC(=O)[C@@H](NC(=O)[C@H](CCCCN)NC(=O)[C@H](CCCCN)NC(=O)[C@@H](NC(=O)[C@H](CC(C)C)NC(=O)[C@H](CCCCN)NC(=O)[C@H](CC(N)=O)NC(=O)[C@H](Cc1ccccc1)NC(=O)[C@H](CCCNC(=N)N)NC(=O)[C@H](CCCCN)NC(=O)[C@H](CCCNC(=N)N)NC(=O)[C@H](Cc1ccccc1)NC(=O)CN)C(C)C)C(C)C)[C@@H](C)O)[C@@H](C)CC)[C@@H](C)O)C(C)C)C(C)C)C(=O)N[C@H](C(=O)N[C@@H](C)C(=O)NCC(=O)N[C@@H](CO)C(=O)NCC(=O)N[C@H](C(=O)N[C@@H](C)C(=O)N[C@H](C(=O)NCC(=O)N[C@@H](C)C(=O)N[C@@H](C)C(=O)N[C@@H](CCSC)C(N)=O)C(C)C)C(C)C)C(C)C has an MIC of > 1020 µg/mL (broth microdilution; ATCC 25923, CAMHB).
CC[C@H]1OC(=O)[C@H](C)[C@@H](OC(=O)Cc2c(F)cc([N+](=O)[O-])cc2F)[C@H](C)[C@@H](O[C@@H]2O[C@H](C)C[C@H](N(C)C)[C@H]2O)[C@](C)(OC)C[C@@H](C)C(=O)[C@H](C)[C@@H](O)[C@]1(C)O gave an MIC of 0.5 µg/mL (BAA-977).
With CC(C)C[C@H](NC(=O)[C@H](CCCNC(=N)N)NC(=O)[C@H](C)NC(=O)[C@H](CC(C)C)NC(=O)[C@H](CCCNC(=N)N)NC(=O)[C@H](C)NC(=O)[C@H](CCCCN)NC(=O)[C@H](CC(C)C)NC(=O)[C@H](CCCNC(=N)N)NC(=O)[C@H](Cc1ccc(O)cc1)NC(=O)[C@H](CC(C)C)NC(=O)[C@H](CCCNC(=N)N)NC(=O)[C@H](C)NC(=O)[C@H](CCCNC(=N)N)NC(=O)[C@H](CC(C)C)NC(=O)[C@H](CCCCN)NC(=O)[C@H](C)NC(=O)[C@H](CC(C)C)NC(=O)[C@H](CCCNC(=N)N)NC(=O)[C@H](C)NC(=O)[C@@H](N)CCCCN)C(N)=O the MIC was 8.8 µM (broth microdilution; ATCC 6538; 24 h).
The MIC of CC[C@H](C)[C@H](NC(=O)[C@@H](CCCNC(=N)N)NC(=O)[C@H](CCCNC(=N)N)NC(=O)[C@H](C)NC(=O)[C@H](Cc1c[nH]c2ccccc12)NC(=O)[C@H](CCCNC(=N)N)NC(=O)[C@@H]1CCCN1C(=O)[C@H](CCCNC(=N)N)NC(=O)[C@@H]1CCCN1C(=O)[C@H](CC(C)C)NC(=O)[C@H](Cc1ccc(O)cc1)NC(=O)[C@@H]1CCCN1C(=O)[C@@H]1CCCN1C(=O)[C@H](CCCCN)NC(=O)[C@H](CC(=O)O)NC(=O)[C@@H](N)C(C)C)C(=O)N[C@@H](Cc1ccc(O)cc1)C(=O)N[C@@H](CC(N)=O)C(=O)N[C@H](CCCNC(=N)N)C(N)=O is reported as 128 µg/mL (broth microdilution; DSM 6247; 18 h, 37 °C, 25% MHB2).
With CN[C@H](CC(C)C)C(=O)N[C@H]1C(=O)N[C@@H](CC(N)=O)C(=O)N[C@H]2C(=O)N[C@H]3C(=O)N[C@H](C(=O)N[C@H](C(=O)O)c4cc(O)cc(O)c4-c4cc3ccc4O)[C@H](O)c3ccc(c(Cl)c3)Oc3cc2cc(c3O[C@@H]2O[C@H](CO)[C@@H](O)[C@H](O)[C@H]2O[C@H]2C[C@](C)(NCc3ccc(OCc4cn(CCCCC(=O)N[C@H](C(=O)N[C@@H](CCN)C(=O)N[C@H]5CCNC(=O)[C@H]([C@@H](C)O)NC(=O)[C@H](CCN)NC(=O)[C@H](CCN)NC(=O)[C@H](CC(C)C)NC(=O)[C@@H](CC(C)C)NC(=O)[C@H](CCN)NC5=O)[C@@H](C)O)nn4)c(OC)c3)[C@H](O)[C@H](C)O2)Oc2ccc(cc2Cl)[C@H]1O the MIC was 2 µg/mL (broth microdilution; VISA NRS402, tryptic soy broth; 20 to 24 h, 37 °C, 0.002% polysorbate 80).
CC(C)C[C@H](NC(=O)[C@H](CCCCN)NC(=O)C1CCCC=CCCC(NC(=O)[C@H](CCCCN)NC(=O)[C@@H](N)CC(C)C)C(=O)N[C@@H](CCCCN)C(=O)N[C@@H](CC(C)C)C(=O)N[C@@H](CCCCN)C(=O)N2CCC[C@@H]2C(=O)NCC(=O)N[C@@H](CCCCN)C(=O)N[C@@H](CC(C)C)C(=O)N[C@@H](CCCCN)C(=O)N1)C(N)=O (stereo partly drawn) gave an MIC of 32 µM (broth microdilution; ATCC 29737, Mueller-Hinton broth; 18 h, 37 °C).
For Cc1ccc2[nH]c3c(c2c1)CCCC3NCCc1ccc(Br)cc1 (stereo not drawn), the MIC was 4 µg/mL (broth microdilution; HG001).
C#CCOc1ccc(CN[C@@]2(C)C[C@H](O[C@H]3[C@H](Oc4c5cc6cc4Oc4ccc(cc4Cl)[C@@H](O)[C@@H](NC(=O)[C@@H](CC(C)C)NC)C(=O)N[C@@H](CC(N)=O)C(=O)N[C@H]6C(=O)N[C@H]4C(=O)N[C@H](C(=O)N[C@H](C(=O)N[C@@H](CCCNC(=N)N)C(N)=O)c6cc(O)cc(O)c6-c6cc4ccc6O)[C@H](O)c4ccc(c(Cl)c4)O5)O[C@H](CO)[C@@H](O)[C@@H]3O)O[C@@H](C)[C@H]2O)cc1OC has an MIC of 2 µg/mL (broth microdilution; VISA LIM-2, tryptic soy broth; 20 to 24 h, 37 °C, 0.002% polysorbate 80).
CC(=O)N[C@@H](CC(C)C)C(=O)N[C@H]1CSSC[C@@H](C(=O)N2CCC[C@H]2C(N)=O)NC(=O)[C@H]([C@@H](C)O)NC(=O)[C@H](C(C)C)NC(=O)[C@H]([C@@H](C)O)NC(=O)[C@H](CCCCN)NC(=O)[C@H](CC(C)C)NC(=O)[C@H](Cc2ccccc2)NC(=O)[C@H](Cc2ccc(O)cc2)NC(=O)[C@H](CC(C)C)NC(=O)[C@H](CCCCN)NC(=O)[C@H](Cc2ccccc2)NC(=O)[C@H](CCCNC(=N)N)NC(=O)[C@H](CCC(N)=O)NC(=O)[C@H](CC(C)C)NC(=O)[C@H](CCCCN)NC(=O)[C@@H]2CCCN2C(=O)[C@H](CCCCN)NC(=O)[C@H](C(C)C)NC(=O)[C@H](CC(N)=O)NC(=O)[C@H](Cc2ccc(O)cc2)NC(=O)[C@H]([C@@H](C)O)NC1=O has an MIC of 10 to 20 µM (broth dilution; laboratory strain; 24 h).
For CC[C@H](C)[C@@H]1NC(=O)[C@H](CO)NC(=O)[C@H](CCCCN)NC(=O)[C@@H]2CSSC[C@@H](C(=O)N[C@@H](Cc3ccc(O)cc3)C(N)=O)NC(=O)[C@H](CCCCN)NC(=O)[C@@H]3CSSC[C@H](NC(=O)[C@H](CCCNC(=N)N)NC(=O)[C@H](CC(C)C)NC(=O)[C@H](CC(=O)O)NC(=O)[C@H](CC(=O)O)NC(=O)[C@H](CCC(=O)O)NC(=O)[C@H](CC(N)=O)NC(=O)[C@H](Cc4c[nH]c5ccccc45)NC(=O)C(C)(CC)NC(=O)CNC(=O)[C@H](CC(N)=O)NC(=O)[C@@H](NC(=O)CNC(=O)[C@H](Cc4ccccc4)NC(=O)CN)CSSC[C@H](NC(=O)[C@H](Cc4ccc(O)cc4)NC(=O)CNC(=O)CNC(=O)[C@H](CCCCN)NC(=O)[C@H](Cc4ccc(O)cc4)NC(=O)[C@H]4CCCN4C(=O)[C@@H]4CCCN4C1=O)C(=O)N[C@@H](C)C(=O)N[C@@H](CCCCN)C(=O)N1CCC[C@@H]1C(=O)NCC(=O)N[C@@H](Cc1ccccc1)C(=O)N[C@@H](C(C)C)C(=O)N3)C(=O)N[C@@H](Cc1c[nH]cn1)C(=O)N[C@@H](CC(N)=O)C(=O)N[C@@H](Cc1c[nH]cn1)C(=O)N2 (stereo partly drawn), the MIC was 1 µM (469, methicillin-resistant mecA, cation-adjusted Mueller Hinton broth; 18 h, 37 °C).

Repeated from above:
CC[C@H]1OC(=O)[C@H](C)[C@@H](OC(=O)Cc2c(F)cc([N+](=O)[O-])cc2F)[C@H](C)[C@@H](O[C@@H]2O[C@H](C)C[C@H](N(C)C)[C@H]2O)[C@](C)(OC)C[C@@H](C)C(=O)[C@H](C)[C@@H](O)[C@]1(C)O gave an MIC of 0.5 µg/mL (BAA-977).
CC(=O)N[C@@H](CC(C)C)C(=O)N[C@H]1CSSC[C@@H](C(=O)N2CCC[C@H]2C(N)=O)NC(=O)[C@H]([C@@H](C)O)NC(=O)[C@H](C(C)C)NC(=O)[C@H]([C@@H](C)O)NC(=O)[C@H](CCCCN)NC(=O)[C@H](CC(C)C)NC(=O)[C@H](Cc2ccccc2)NC(=O)[C@H](Cc2ccc(O)cc2)NC(=O)[C@H](CC(C)C)NC(=O)[C@H](CCCCN)NC(=O)[C@H](Cc2ccccc2)NC(=O)[C@H](CCCNC(=N)N)NC(=O)[C@H](CCC(N)=O)NC(=O)[C@H](CC(C)C)NC(=O)[C@H](CCCCN)NC(=O)[C@@H]2CCCN2C(=O)[C@H](CCCCN)NC(=O)[C@H](C(C)C)NC(=O)[C@H](CC(N)=O)NC(=O)[C@H](Cc2ccc(O)cc2)NC(=O)[C@H]([C@@H](C)O)NC1=O has an MIC of 10 to 20 µM (broth dilution; laboratory strain; 24 h).
